Measurements collected from several papers.
Compare with care: the assays were run in different laboratories. “And” joins repeats or separate records; there may be more than shown. ± marks the error that the study gave.
lasR: Transcriptional activator protein LasR (lasR, Pseudomonas aeruginosa, UniProt P25084)
Sequence of UniProt P25084 (whole entry, looked up): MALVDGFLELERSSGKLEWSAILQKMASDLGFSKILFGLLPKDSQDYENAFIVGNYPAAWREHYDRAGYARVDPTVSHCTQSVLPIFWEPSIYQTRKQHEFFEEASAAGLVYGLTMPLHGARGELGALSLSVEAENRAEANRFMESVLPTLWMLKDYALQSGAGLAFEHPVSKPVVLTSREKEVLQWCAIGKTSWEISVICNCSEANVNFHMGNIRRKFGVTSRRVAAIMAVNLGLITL
Uncharacterized hydrolase SAUSA300_2518: Uncharacterized hydrolase SAUSA300_2518 (Staphylococcus aureus, UniProt Q2FDS6)
Sequence of UniProt Q2FDS6 (whole entry, looked up): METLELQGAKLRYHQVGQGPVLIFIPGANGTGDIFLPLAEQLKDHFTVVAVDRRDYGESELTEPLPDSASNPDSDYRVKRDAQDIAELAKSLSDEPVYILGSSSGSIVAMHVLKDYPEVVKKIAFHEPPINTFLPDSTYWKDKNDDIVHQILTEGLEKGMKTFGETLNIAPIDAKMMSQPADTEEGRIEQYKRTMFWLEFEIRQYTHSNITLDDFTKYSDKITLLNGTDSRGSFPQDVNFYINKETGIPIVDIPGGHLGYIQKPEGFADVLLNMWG
Sequence of UniProt Q96GD4 (whole entry, looked up): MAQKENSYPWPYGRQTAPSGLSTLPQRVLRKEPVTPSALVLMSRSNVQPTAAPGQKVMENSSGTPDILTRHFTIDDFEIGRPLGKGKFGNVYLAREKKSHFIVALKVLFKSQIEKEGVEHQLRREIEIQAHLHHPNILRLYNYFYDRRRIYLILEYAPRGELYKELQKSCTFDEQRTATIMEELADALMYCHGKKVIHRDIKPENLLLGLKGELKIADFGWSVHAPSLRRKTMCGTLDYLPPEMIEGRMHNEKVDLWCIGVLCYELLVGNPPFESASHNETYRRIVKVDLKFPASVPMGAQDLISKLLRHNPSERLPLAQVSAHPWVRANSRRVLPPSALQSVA
Sequence of UniProt Q9H093 (whole entry, looked up): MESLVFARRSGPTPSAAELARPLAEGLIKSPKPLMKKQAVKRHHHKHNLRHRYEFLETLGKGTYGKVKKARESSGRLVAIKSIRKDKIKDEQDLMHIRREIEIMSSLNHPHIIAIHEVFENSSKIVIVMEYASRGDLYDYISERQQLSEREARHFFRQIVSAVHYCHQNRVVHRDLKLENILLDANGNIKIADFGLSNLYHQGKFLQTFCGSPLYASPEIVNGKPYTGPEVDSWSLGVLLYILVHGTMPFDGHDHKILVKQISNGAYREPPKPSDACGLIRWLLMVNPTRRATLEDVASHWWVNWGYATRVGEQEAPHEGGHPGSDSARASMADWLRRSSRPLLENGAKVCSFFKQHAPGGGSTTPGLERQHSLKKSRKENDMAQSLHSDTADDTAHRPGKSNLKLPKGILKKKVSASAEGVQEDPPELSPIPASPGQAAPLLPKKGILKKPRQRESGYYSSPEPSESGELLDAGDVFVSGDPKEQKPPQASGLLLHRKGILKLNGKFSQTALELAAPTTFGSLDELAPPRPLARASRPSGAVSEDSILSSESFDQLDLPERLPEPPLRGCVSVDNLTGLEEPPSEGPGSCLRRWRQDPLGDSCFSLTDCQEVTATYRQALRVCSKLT
Sequence of UniProt P54578 (whole entry, looked up): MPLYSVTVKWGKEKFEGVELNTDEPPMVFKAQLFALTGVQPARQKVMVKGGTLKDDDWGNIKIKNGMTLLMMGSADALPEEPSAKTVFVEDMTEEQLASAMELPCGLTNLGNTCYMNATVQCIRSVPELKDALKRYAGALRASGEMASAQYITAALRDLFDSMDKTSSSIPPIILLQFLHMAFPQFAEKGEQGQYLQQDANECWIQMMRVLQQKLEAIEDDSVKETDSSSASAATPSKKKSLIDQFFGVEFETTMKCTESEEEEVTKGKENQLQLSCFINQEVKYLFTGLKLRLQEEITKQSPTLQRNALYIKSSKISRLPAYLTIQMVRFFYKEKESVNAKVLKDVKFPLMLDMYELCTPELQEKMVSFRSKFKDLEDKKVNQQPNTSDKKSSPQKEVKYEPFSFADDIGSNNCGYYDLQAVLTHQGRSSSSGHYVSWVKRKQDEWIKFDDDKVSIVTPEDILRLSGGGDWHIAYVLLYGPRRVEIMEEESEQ
Sequence of UniProt P21802 (whole entry, looked up): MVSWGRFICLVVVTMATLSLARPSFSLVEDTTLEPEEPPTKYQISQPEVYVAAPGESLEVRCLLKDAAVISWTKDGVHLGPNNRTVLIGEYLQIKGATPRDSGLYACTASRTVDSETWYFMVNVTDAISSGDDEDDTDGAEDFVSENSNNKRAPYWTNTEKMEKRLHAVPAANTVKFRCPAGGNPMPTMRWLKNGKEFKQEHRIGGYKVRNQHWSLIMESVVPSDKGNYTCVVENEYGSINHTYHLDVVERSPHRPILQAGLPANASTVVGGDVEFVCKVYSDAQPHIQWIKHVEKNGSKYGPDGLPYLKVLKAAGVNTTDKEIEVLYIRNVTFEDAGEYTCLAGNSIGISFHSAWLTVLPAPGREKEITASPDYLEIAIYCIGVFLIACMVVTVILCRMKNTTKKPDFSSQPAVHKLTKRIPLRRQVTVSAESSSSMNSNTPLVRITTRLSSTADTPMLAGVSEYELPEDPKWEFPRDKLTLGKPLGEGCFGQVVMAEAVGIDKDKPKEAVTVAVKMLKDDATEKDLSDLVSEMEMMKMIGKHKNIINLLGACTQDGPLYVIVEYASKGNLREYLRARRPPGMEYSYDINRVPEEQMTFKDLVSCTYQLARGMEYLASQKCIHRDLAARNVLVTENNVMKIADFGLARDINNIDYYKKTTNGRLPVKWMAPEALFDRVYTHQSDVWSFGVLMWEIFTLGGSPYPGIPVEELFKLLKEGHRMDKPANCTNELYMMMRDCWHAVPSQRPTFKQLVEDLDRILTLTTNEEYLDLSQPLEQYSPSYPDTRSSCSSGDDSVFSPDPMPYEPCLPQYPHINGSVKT
Sequence of UniProt O60895 (whole entry, looked up): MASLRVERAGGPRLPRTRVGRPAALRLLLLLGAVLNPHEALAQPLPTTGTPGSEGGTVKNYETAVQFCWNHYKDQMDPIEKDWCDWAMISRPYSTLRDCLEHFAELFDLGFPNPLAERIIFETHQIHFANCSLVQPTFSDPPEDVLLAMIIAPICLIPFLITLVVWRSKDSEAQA
Sequence of UniProt Q9UK32 (whole entry, looked up): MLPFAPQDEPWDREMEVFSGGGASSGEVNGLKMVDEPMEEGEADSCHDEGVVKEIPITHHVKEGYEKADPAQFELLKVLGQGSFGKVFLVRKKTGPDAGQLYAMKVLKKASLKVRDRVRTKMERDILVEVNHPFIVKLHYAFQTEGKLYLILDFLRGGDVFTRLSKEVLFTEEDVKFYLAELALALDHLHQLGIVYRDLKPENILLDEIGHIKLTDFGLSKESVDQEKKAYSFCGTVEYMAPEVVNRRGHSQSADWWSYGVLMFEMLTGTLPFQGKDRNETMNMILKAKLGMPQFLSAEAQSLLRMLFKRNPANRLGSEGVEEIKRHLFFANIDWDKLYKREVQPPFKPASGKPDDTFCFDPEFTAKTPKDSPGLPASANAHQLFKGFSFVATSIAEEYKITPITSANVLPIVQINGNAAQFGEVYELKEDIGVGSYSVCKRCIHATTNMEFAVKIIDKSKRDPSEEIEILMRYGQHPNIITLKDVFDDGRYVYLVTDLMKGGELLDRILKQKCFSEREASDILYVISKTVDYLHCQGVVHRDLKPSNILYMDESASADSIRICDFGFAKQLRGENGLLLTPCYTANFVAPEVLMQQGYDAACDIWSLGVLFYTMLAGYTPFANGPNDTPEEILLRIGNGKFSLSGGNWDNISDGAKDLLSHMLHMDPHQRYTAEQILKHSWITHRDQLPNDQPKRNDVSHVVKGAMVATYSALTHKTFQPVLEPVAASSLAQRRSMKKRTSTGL
Sequence of UniProt P10398 (whole entry, looked up): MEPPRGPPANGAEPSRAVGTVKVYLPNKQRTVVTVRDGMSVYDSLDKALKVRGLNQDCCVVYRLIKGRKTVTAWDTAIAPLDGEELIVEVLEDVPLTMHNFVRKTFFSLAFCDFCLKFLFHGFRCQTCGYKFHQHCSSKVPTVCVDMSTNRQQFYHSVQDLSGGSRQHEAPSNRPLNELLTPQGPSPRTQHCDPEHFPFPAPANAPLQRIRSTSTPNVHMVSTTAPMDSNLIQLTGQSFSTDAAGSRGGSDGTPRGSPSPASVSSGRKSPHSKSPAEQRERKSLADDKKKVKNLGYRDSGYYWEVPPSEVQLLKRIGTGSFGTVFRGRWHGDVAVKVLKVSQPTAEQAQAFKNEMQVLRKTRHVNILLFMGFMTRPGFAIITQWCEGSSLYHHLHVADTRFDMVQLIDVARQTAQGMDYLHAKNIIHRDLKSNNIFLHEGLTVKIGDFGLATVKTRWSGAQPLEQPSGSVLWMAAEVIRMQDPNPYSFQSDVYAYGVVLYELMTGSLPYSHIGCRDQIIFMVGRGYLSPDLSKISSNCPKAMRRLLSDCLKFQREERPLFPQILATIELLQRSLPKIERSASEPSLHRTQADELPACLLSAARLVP
Sequence of UniProt Q9Y616 (whole entry, looked up): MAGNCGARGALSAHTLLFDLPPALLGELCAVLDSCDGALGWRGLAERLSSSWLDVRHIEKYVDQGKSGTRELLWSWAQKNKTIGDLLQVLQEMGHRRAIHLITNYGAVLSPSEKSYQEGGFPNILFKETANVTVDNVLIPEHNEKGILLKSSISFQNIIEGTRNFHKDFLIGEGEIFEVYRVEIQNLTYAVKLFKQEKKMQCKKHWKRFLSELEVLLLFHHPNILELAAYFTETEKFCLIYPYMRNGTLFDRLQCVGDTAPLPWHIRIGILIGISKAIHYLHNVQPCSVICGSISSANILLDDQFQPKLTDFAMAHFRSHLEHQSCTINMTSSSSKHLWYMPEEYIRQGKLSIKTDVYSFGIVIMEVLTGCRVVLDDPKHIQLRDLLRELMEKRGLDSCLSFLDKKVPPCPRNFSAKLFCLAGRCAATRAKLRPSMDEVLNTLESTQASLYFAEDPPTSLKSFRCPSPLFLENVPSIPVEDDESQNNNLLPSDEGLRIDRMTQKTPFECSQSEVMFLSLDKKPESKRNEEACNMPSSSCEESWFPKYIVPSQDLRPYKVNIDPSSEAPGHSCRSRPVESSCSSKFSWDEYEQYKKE

`CC(C)(C)C(=O)OCOP(=O)(OCOC(=O)C(C)(C)C)C1CCCN(O)C1=O` (stereo not shown) has a TGI of 1.58 µM (SK-MEL-5).
The inhibition of `CS(C)(=O)=Nc1ccc(-c2ccc(-c3nc4cc(O[C@@H]5CO[C@H]6[C@@H]5OC[C@H]6O)[nH]c4cc3F)cc2)cc1` is reported as -3% (Phosphatidylinositol 4-phosphate 5-kinase type-1 alpha (PIP5K1A, Homo sapiens, UniProt Q99755); enzyme activity, inhibitor; 10 µM).
With `COc1ccccc1-c1n[nH]c2nc(NC3CCN(C(=O)Cc4ccc(F)cc4F)CC3)ncc12` the relative abundance was 0.93 (bead binding, competition bead pull-down, item: LINJ.36.3100; Leishmania donovani axenic amastigote extract; 10 µM; reference: vehicle).
Under “organ-to-brain weight ratio”, `O=C1NC2(CC2)COc2ncc(F)cc2[C@H]2COCCN2c2ccn3ncc1c3n2` is recorded as 5.44 ± 1% (Sprague-Dawley rat, female, ovaries; oral, 10 mg/kg/day, 4 weeks dosing, end of recovery).
For `CC(=O)NC[C@@H]1C[C@@H](O)[C@H]2[C@H](O)C[C@@H](CO)N12`, the inhibition was 55.3% and 60.7% (β-N-acetylglucosaminidase; enzyme activity, inhibitor, colorimetric; Canavalia ensiformis; 300 nM, added: p-nitrophenyl GlcNAc substrate).
With `O=C(CN1CN(c2ccccc2)C2(CCN(C(=O)c3cnc4[nH]ncc4c3)CC2)C1=O)NCC(F)(F)F` the inhibition was < 50% (Ribosomal protein S6 kinase alpha-6, C-terminal kinase domain (RPS6KA6, Homo sapiens, UniProt Q9UK32); inhibitor; concentration not given).
`O=C1NC(=O)c2c1c1cc(F)c[n+]3c1c1c2c2cc(O)ccc2[n]1[Ru-4]312([N]=C=S)[S+]3CC[S+]1CC[S+]2CC3` (stereo not shown) has a remaining activity of 116% (Cyclin-dependent kinase 3, with cyclin E (CDK3, Homo sapiens, UniProt Q00526); enzyme activity; 100 nM, human enzyme, added: 10 µM ATP; reference: untreated).
`CCCCCCCCCCCCCCCCCC(=O)NC[C@H]1CC[C@H](C(=O)N[C@@H](CCC(=O)NCCCOCCOCCOCCCNC(=O)COCC(=O)N[C@@H](Cc2ccc(O)cc2)C(=O)NC(C)(Cc2ccccc2)C(=O)N[C@@H](CC(C)C)C(=O)N[C@@H](CCCC)C(=O)N[C@@H](CCCNC(=N)N)C(=O)N2CCC[C@H]2C(=O)N[C@@H](CCCNC(=N)NC)C(=O)N[C@@H](CC(N)=O)C(N)=O)C(=O)O)CC1` (stereo partly shown) has an inhibition of 72% (Amylin receptor AMY2; CALCR/RAMP2 (Homo sapiens, UniProt O60895+P30988); antagonist, DiscoverX GPCR panel; 1 µM).
The inhibition of `Cn1c(=O)[nH]c2nncnc2c1=O` is reported as 92% (Ubiquitin carboxyl-terminal hydrolase 14 (USP14, Homo sapiens, UniProt P54578); enzyme activity, inhibitor; 17 µM).
`C[C@H](NCc1ccc(-c2ccc(C(F)(F)F)cc2)cc1)C(N)=O` has an inhibition of 8% (Aurora kinase B (AURKB, Homo sapiens, UniProt Q96GD4); cell-free assay, competition with immobilised ligand; 1 µM).
`CCCCCCCCCC(=O)NC1CCCC1` has an inhibition of 59% (lasR; reporter gene, antagonist; Pseudomonas aeruginosa PAO-JP2; 100 µM, plasI-LVAgfp reporter, added: OdDHL 150 nM).
`COc1ccccc1-c1n[nH]c2nc(N[C@H]3CC[C@H](NS(=O)(=O)CC(C)C)CC3)ncc12` has a relative abundance of 0.85 (bead binding, competition bead pull-down, item: LINJ.33.1660; Leishmania donovani extract; 10 µM; reference: vehicle).
For `C=CC(=O)Nc1cc(-c2nn(C3CCC(N4CCN(C(C)=O)CC4)CC3)c3ncnc(N)c23)ccc1Oc1ccccc1` (stereo not shown), the inhibition was 10.8% (Serine/threonine-protein kinase A-Raf (ARAF, Homo sapiens, UniProt P10398); inhibitor, KiNativ profiling; biochemical; 2 µM).
For `O=C(O)c1ccccc1/C=N/Nc1nc(-c2ccccc2Cl)cs1`, the inhibition was -1.13% (Ribosomal protein S6 kinase beta-1 (RPS6KB1, Homo sapiens, UniProt P23443); enzyme activity, inhibitor; 1 µM).
`O=C(NCc1cc(Br)cc(Br)c1OC(=O)c1ccccc1[N+](=O)[O-])c1ccccc1Cl` gave an inhibition of -112% (lasR; reporter gene, antagonist; Escherichia coli JLD271; 10 µM, pSC11 and pJN105L plasmids, added: OdDHL 2 nM).
`Nc1ccc(/C=C/C(=O)N2CCc3c(oc4c(-c5ccc(F)cc5)cc(-c5ccc(C(=O)N6CCC(F)(F)CC6)cn5)cc34)C2)cn1` has a remaining binding of 100% (Fibroblast growth factor receptor 2 (FGFR2, Homo sapiens, UniProt P21802); binding, competition with immobilised ligand; 1 µM).
For `O=C1C[C@@H](c2ccc(O)cc2)Oc2cc(O)ccc21`, the inhibition was 30.3% (3',5'-cyclic-AMP phosphodiesterase 4D (PDE4D, Homo sapiens, UniProt Q08499); enzyme activity, inhibitor, radiometric; 50 µM).
`CC[C@H](C)[C@H](NC(=O)[C@H](CO)NC(=O)[C@H](Cc1ccc(O)cc1)NC(=O)[C@H](Cc1ccc(O)cc1)NC(=O)[C@H](CC(N)=O)NC(=O)CNC(=O)[C@H](CO)NC(=O)[C@H](Cc1ccc(O)cc1)NC(=O)[C@H](CO)NC(=O)[C@H](CO)NC(=O)[C@H](CC(N)=O)NC(=O)COCCOCCNC(=O)CN1CCN(CC(=O)O)CCN(CC(=O)O)CCN(CC(=O)O)CC1)C(=O)N[C@@H](CC(C)C)C(N)=O` [copper-64 labelled] has a tissue uptake of 12.6 %ID/mL (dynamic PET; KPC mouse Ptf1a-CreER tdTomato, pancreas; intravenous, 4.6 MBq/mouse, 8.5 min, 84 d after tamoxifen).
`N[C@H](C(=O)N1CCCC1)C1CCN(c2nccc3c(-c4ncc(Cl)cc4Cl)cccc23)CC1` has an inhibition of -2% (neuronal nicotinic acetylcholine receptor; binding, radioligand binding; 10 µM).
For `O=S(=O)(F)c1cccc2c1OCC2`, the inhibition was 21.2% (Uncharacterized hydrolase SAUSA300_2518; enzyme activity, inhibitor, fluorogenic substrate; 50 µM, 1 h preincubation).
`N=C(N)NCCC[C@@H]1NC(=O)[C@H](CCCCNC(=O)CCC(NC(=S)Nc2ccc(CC3CN(CC(=O)O)CCN(CC(=O)O)CCN(CC(=O)O)CCN3CC(=O)O)cc2)C(=O)NCCCC[C@@H]2NC(=O)[C@@H](Cc3ccc(O)cc3)NC(=O)[C@H](CC(=O)O)NC(=O)CNC(=O)[C@H](CCCNC(=N)N)NC2=O)NC(=O)[C@@H](Cc2ccc(O)cc2)NC(=O)[C@H](CC(=O)O)NC(=O)CNC1=O` (stereo partly shown) [scandium-44 labelled] has a tissue uptake of 1.29 ± 0.261 %ID/g (ex vivo γ-counting; female athymic nude mice, U-87 MG xenograft, kidney; intravenous, 4 h, added: cRGD 50 mg/kg blocking).
For `Cc1cc(-c2ccc3ccccc3c2)nnc1NCCN1CCN(C)CC1`, the inhibition was 94% (Sodium-dependent serotonin transporter (Slc6a4, Rattus norvegicus, UniProt P31652); monoamine uptake, inhibitor; rat synaptosomes; 10000 nM).
For `CN(C)[C@H]1C[C@@]23CC[C@@]4(O2)C(=CC[C@]2(C)[C@@H](c5ccc6ccncc6c5)CC[C@H]24)C=C3[C@@H](O)[C@@H]1O`, the inhibition was 5.8% (Interleukin-1 receptor-associated kinase 3 (IRAK3, Homo sapiens, UniProt Q9Y616); ATP probe labelling, inhibitor, KiNativ profiling; 0.1 µM).
With `CC(C)[C@H]1NC(=O)C[C@H]2/C=C/CCSSC[C@@H](NC1=O)C(=O)N[C@H](Cc1cccc3ccccc13)C(=O)NCC(=O)O2` the inhibition was -1.5% (NUAK family SNF1-like kinase 2 (NUAK2, Homo sapiens, UniProt Q9H093); enzyme activity, inhibitor; 10 µM).
The inhibition of `CN(/N=C/c1ccccc1C(=O)O)c1nc(-c2ccccc2Cl)cs1` is reported as -30.4% (Tyrosine-protein kinase ZAP-70 (ZAP70, Homo sapiens, UniProt P43403); enzyme activity, inhibitor; 1 µM).
For `CCOC(=O)C1CCN(C(=O)n2cc[n+](C)c2)CC1`, the inhibition was 22.2% (Uncharacterized hydrolase SAUSA300_2518; enzyme activity, inhibitor; 50 µM).
`Cc1cc(C(=O)Nc2nc3cccc(C)c3n2[C@H]2CCCCN(C(=O)/C=C/CN(C)C)C2)ccn1`: “cell cycle distribution” 12.2% and 17.1% and 9.2% (Trypanosoma brucei; propidium iodide flow cytometry, item: Multi phase; bloodstream CLK1 over-expression induced; concentration not given).
The inhibition of `O=C(CCCc1ccccc1)NC1CCOC1=O` (stereo not shown) is reported as 27% (lasR; reporter gene, antagonist; Pseudomonas aeruginosa PAO-JP2; 100 µM, plasI-LVAgfp reporter, added: OdDHL 150 nM).

A few entries again:
The inhibition of `CN(/N=C/c1ccccc1C(=O)O)c1nc(-c2ccccc2Cl)cs1` is reported as -30.4% (Tyrosine-protein kinase ZAP-70 (ZAP70, Homo sapiens, UniProt P43403); enzyme activity, inhibitor; 1 µM).
`CCCCCCCCCCCCCCCCCC(=O)NC[C@H]1CC[C@H](C(=O)N[C@@H](CCC(=O)NCCCOCCOCCOCCCNC(=O)COCC(=O)N[C@@H](Cc2ccc(O)cc2)C(=O)NC(C)(Cc2ccccc2)C(=O)N[C@@H](CC(C)C)C(=O)N[C@@H](CCCC)C(=O)N[C@@H](CCCNC(=N)N)C(=O)N2CCC[C@H]2C(=O)N[C@@H](CCCNC(=N)NC)C(=O)N[C@@H](CC(N)=O)C(N)=O)C(=O)O)CC1` (stereo partly shown) has an inhibition of 72% (Amylin receptor AMY2; CALCR/RAMP2 (Homo sapiens, UniProt O60895+P30988); antagonist, DiscoverX GPCR panel; 1 µM).
`Nc1ccc(/C=C/C(=O)N2CCc3c(oc4c(-c5ccc(F)cc5)cc(-c5ccc(C(=O)N6CCC(F)(F)CC6)cn5)cc34)C2)cn1` has a remaining binding of 100% (Fibroblast growth factor receptor 2 (FGFR2, Homo sapiens, UniProt P21802); binding, competition with immobilised ligand; 1 µM).
